Measurements from different studies.
Compare with care: the assays were run in different laboratories. Numbers after ± are the reported error.

SMILES | assay | system | conditions | tissue uptake
N=C(N)NCc1ccc(C(=O)NCCCC[C@H](NC(=O)CCCCCCC(=O)NCCCC[C@H](NC(=O)N[C@@H](CCC(=O)O)C(=O)O)C(=O)O)C(=O)O)cc1[131I] | – | SCID mouse, PC-3 xenografts, brain | 1 h | 0.05 ± 0.02 %ID/g
C=Cc1cc(O)cc2nc(-c3ccc(O)c([76Br])c3)oc12 | – | female C57BL/6 mouse, uterus | 3 h, high dose, together with: estradiol 20 µg blocking | 0.13 ± 0.02 %ID/g
O=C(c1ccc(F)cc1)C1CCN(C2Cc3c(cccc3OCC[18F])CC2O)CC1 (single isomer, unassigned; (-)) | – | Sprague-Dawley rat, male, blood | intravenous, dose not given, 60 min | 0.338 ± 0.088 %ID/g
COc1ccc(C)cc1NC(=O)OC1CC2CCCC(C1)N2Cc1ccc(CC[18F])cc1 (stereo not shown) | – | BALB/c mice, EMT6 tumour, kidney | 30 min | 16.3 ± 1.35 %ID/g
CN[C@](C)(C[18F])C(=O)O | – | SCID mouse U87 xenograft, heart | 120 min, post injection | 3.3 ± 1 %ID/g
CCCC[C@H](NC(=O)CN1CCC(NC(=O)CN2CCC(NC(=O)CN3CCN(CC(=O)O)CCN(CC(=O)O)CCN(CC(=O)O)CC3)CC2)CC1)C(=O)N[C@H]1CC(=O)NCCCC[C@@H](C(N)=O)NC(=O)[C@H](Cc2c[nH]c3ccccc23)NC(=O)[C@H](CCCNC(=N)N)NC(=O)[C@@H](Cc2ccccc2)NC(=O)[C@H](Cc2c[nH]cn2)NC1=O [gallium-68 labelled] | – | C57BL/6J mice male B16-F10 tumour, bone | 1 h post injection, unblocked | 0.2 %ID/g
N=C(N)NCc1ccc(C(=O)NCCCC[C@H](NC(=O)CCCCCCC(=O)NCCCC[C@H](NC(=O)N[C@@H](CCC(=O)O)C(=O)O)C(=O)O)C(=O)O)cc1[211At] | – | SCID mouse, PC-3 xenografts, blood | 21 h | 0.48 ± 0.13 %ID/g
CCNc1cc2[o+]c3cc(NCC)c(C)cc3c(-c3ccccc3C(=O)OCCOCC[18F])c2cc1C | – | rat, skin | 15 min | 0.13 ± 0.04 %ID/g
C[S]1CC[S]2CC[P](CO)(CO)[99Tc+]12.[C-]#[O+].[C-]#[O+].[C-]#[O+] | – | female CF-1 mouse, carcass | intravenous, 4 h | 2.9 %ID
N=C(N)NCc1ccc(C(=O)NCCCC[C@H](NC(=O)N[C@@H](CCC(=O)O)C(=O)O)C(=O)O)cc1[131I] | – | SCID mouse, PC-3 xenografts, muscle | 14 h | 0.03 ± 0.02 %ID/g
COc1cc2ccnc(Cc3ccc(O[11CH3])c(OC)c3)c2cc1OC | – | Sprague-Dawley rats, liver | intravenous, 0.5 h | 1.49 ± 0.464 %ID/g
CC(C)C[C@@H](NC(=O)[C@@H](CCCNC(=N)N)NC(=O)[C@@H](Cc1c[nH]cn1)NC(=O)[C@@H](Cc1c[nH]c2ccccc12)NC(=O)[C@@H](Cc1c[nH]cn1)NC(=O)[C@@H](Cc1ccccc1)NC(=O)[C@H](NC(=O)[C@@H](Cc1ccc(O)cc1)NC(=O)CNC(=O)CNC(=O)CCOCCOCCOCCNC(=O)CN1CCN(CC(=O)O)CCN(CC(=O)O)CC1)[C@H](C)O)C(=O)N[C@H](CC(N)=O)C(=O)N1CCC[C@@H]1C(=O)O [gallium-68 labelled] | static PET | male C57BL/6 mice, tumour | intravenous, 60 min | 3.76 ± 0.68 %ID/g
N=C(N)NCc1ccc(C(=O)NCCCC[C@H](NC(=O)N[C@@H](CCC(=O)O)C(=O)O)C(=O)O)cc1[211At] | – | SCID mouse, PC-3 xenografts, muscle | 1 h | 0.56 ± 0.05 %ID/g

Excerpt of the above:
SMILES | assay | system | conditions | tissue uptake
O=C(c1ccc(F)cc1)C1CCN(C2Cc3c(cccc3OCC[18F])CC2O)CC1 (single isomer, unassigned; (-)) | – | Sprague-Dawley rat, male, blood | intravenous, dose not given, 60 min | 0.338 ± 0.088 %ID/g
